Results pooled from the literature.
Parts stem from different laboratories: compare values within a part only.

Block 1
Target: Sal-like protein 4, full length isoform A (SALL4, Homo sapiens, UniProt Q9UJQ4, residues 1-1053)
Chain of UniProt Q9UJQ4 (whole entry, looked up): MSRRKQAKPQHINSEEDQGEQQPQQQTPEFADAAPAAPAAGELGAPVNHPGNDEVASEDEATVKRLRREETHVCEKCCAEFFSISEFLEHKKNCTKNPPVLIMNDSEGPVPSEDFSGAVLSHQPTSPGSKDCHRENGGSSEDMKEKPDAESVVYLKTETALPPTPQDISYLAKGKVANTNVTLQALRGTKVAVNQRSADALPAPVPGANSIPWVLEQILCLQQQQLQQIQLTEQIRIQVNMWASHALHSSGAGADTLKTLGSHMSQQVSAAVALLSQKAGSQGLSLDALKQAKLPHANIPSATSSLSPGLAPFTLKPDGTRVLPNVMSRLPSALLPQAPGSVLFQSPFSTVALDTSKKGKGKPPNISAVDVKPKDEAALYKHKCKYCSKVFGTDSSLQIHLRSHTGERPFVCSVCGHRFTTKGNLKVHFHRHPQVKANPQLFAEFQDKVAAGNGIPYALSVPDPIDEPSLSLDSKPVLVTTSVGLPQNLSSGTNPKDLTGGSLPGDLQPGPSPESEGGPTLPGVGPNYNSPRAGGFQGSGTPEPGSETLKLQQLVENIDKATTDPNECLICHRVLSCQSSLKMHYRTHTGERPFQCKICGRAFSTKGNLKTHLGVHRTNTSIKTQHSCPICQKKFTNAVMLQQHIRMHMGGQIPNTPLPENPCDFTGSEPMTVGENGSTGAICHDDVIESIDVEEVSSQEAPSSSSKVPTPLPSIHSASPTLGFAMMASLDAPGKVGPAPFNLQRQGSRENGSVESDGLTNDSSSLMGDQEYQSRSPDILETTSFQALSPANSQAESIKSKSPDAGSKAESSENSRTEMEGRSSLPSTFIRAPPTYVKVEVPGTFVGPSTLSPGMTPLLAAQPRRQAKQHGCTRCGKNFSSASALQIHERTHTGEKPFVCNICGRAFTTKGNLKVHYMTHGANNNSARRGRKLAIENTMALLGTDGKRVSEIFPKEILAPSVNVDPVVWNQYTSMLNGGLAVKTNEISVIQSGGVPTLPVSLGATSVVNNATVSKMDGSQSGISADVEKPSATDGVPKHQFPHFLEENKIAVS
Technique: universal PBM
Molecule type: double-stranded DNA, one strand shown
Sample: in vitro
Tested at: 600 nM
Setting: 8-mer, flanks averaged, mean of replicates
Reading: higher = stronger binding
With `CAAAAACG` the E-score was 0.096.
`AGACTACA` gave an E-score of -0.0229.
`CAACCAGA` gave an E-score of 0.0324.
For `CAGGAACA`, the E-score was 0.0848.
With `GATGACCA` the E-score was 0.0355.
With `AAGCCCCC` the E-score was -0.401.
With `GCGCCTCC` the E-score was -0.23.
With `GATTTCAC` the E-score was 0.179.

Block 2
Target: Replicase polyprotein 1ab, polymerase (rep, Severe acute respiratory syndrome coronavirus 2, UniProt P0DTD1)
Effect on: enzyme activity
Action: inhibitor
Tested at: 20 µM
C/C=C/C[C@@H](C)C(=O)[C@H]1C(=O)N[C@@H](C(C)C)C(=O)N(C)CC(=O)N(C)[C@@H](CC(C)C)C(=O)N[C@@H](C(C)C)C(=O)N(C)[C@@H](CC(C)C)C(=O)N[C@@H](C)C(=O)N[C@H](C)C(=O)N(C)[C@@H](CC(C)C)C(=O)N(C)[C@@H](CC(C)C)C(=O)N(C)[C@@H](C(C)C)C(=O)N1C gave an inhibition of -1.56%.
The inhibition of O=c1cc(N2CCOCC2)oc2c(-c3cccc4c3sc3ccccc34)cccc12 is reported as -0.05%.
For C=CC(=O)N1CCC[C@@H](n2nc(-c3ccc(Oc4ccccc4)cc3)c3c(N)ncnc32)C1, the inhibition was -2.01%.
For Cn1cc(C2=C(c3ccc(Cl)cc3Cl)C(=O)NC2=O)c2ccccc21, the inhibition was -14.5%.
COc1ccccc1Oc1c(NS(=O)(=O)c2ccc(C)cn2)nc(-c2ccncc2)nc1OC has an inhibition of 0.05%.
For Cn1cnc2[nH]c(=O)[nH]c(=O)c21, the inhibition was -2.08%.
Cn1cc(-c2[nH]c3cc(NC(=O)[C@H](N)C4CCCCC4)cc4c3c2C=NNC4=O)cn1 has an inhibition of 55.5%.
For CCOc1cccc(NC(=O)c2ccc(N3CCCC3)c(C(F)(F)F)c2)c1, the inhibition was -1.37%.
O=C1NS(=O)(=O)c2ccccc21 gave an inhibition of 1%.
The inhibition of CCOc1ccc(NC(C)=O)cc1 is reported as 4.13%.
O=C(Nc1ccncc1)C(=O)c1cn(Cc2ccc(Cl)cc2)c2ccccc12 gave an inhibition of -1.04%.
For CC(N)Cc1c[nH]c2ccc(OCc3cccs3)cc12 (stereo not drawn), the inhibition was 6.38%.
For O=C(CCCN1CCC2(CC1)C(=O)NCN2c1ccccc1)c1ccc(F)cc1, the inhibition was -24.2%.
For CCN(CC)CCNc1ccc(CO)c2sc3ccccc3c(=O)c12, the inhibition was 2.76%.
O=C(NCc1ccc(OC(F)(F)F)cc1)C1c2ccccc2C(=O)N1C1CCOCC1 (stereo not drawn) has an inhibition of -26%.
The inhibition of OCc1cncc(F)c1 is reported as -0.96%.
For COc1cc(OC)c(OC)cc1C=O, the inhibition was 1.73%.
The inhibition of Cc1c(C(=O)N2CCOc3ccc(-c4ccc(N)nc4)cc3C2)ccc(S(C)(=O)=O)c1F is reported as -3.1%.
The inhibition of C[N+]1(C)[C@@H]2C[C@@H](OC(=O)C(O)(c3cccs3)c3cccs3)C[C@H]1[C@@H]1O[C@@H]12 is reported as 2.3%.
Cc1cc(C)c(S(=O)(=O)Nc2cccc(C(F)(F)F)c2)c(C)c1 gave an inhibition of -4.01%.
With Nc1cc(C(Cl)=C(Cl)Cl)c(S(N)(=O)=O)cc1S(N)(=O)=O the inhibition was 1.75%.
The inhibition of CCc1c(O)cc(O)c(C(=O)c2ccc(OCCN3CCOCC3)c(OC)c2)c1CC(=O)N(CCOC)CCOC is reported as -2.47%.
The inhibition of CC(C)(C)C(O)/C=C/c1ccc2c(c1)OCO2 (stereo not drawn) is reported as 0.04%.
FC(F)(F)c1cccc(-c2noc(-c3cc(-c4ccccc4)c(C(F)(F)F)s3)n2)c1 gave an inhibition of 0.77%.
C=CCn1c(=O)n([C@@H]2O[C@H](CO)[C@@H](O)[C@H]2O)c2nc(N)[nH]c(=O)c21 has an inhibition of 3.78%.

Block 3
Target: Histone acetyltransferase KAT6A, winged helix 1, GST fusion (KAT6A, Homo sapiens, UniProt Q92794, residues 1-85)
Technique: protein binding microarray
Molecule type: double-stranded DNA, one strand shown
Sample: in vitro
Tested at: not given
Setting: 8-mer, flanks averaged, mean of 2 arrays, mostly near background
Reference: not given
Reading: higher = stronger binding
Construct (chain): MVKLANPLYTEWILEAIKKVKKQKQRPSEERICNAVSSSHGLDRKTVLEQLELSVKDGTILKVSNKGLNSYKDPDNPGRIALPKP
The E-score of `ATATTTCG` is reported as -0.163.
With `AAAGAGAG` the E-score was -0.179.
`GCGCAGCC` gave an E-score of 0.312.
With `AGTTTTAC` the E-score was -0.0452.
The E-score of `GAGACTCA` is reported as -0.244.
The E-score of `ACATTAGC` is reported as 0.032.
The E-score of `CTTCCACC` is reported as -0.109.
The E-score of `CCGCCTGC` is reported as 0.275.

Block 4
Target: RNA binding protein fox-1 homolog 2, RRM domain, GST-SBP tag (RBFOX2, Homo sapiens, UniProt O43251-10, residues 100-194)
Technique: RNA Bind-n-Seq
Molecule type: RNA
Sample: in vitro
Tested at: 365 nM
Setting: natural RNA segment, single round, ends assumed
Reference: no-protein control
Reading: higher = stronger binding
Construct (chain): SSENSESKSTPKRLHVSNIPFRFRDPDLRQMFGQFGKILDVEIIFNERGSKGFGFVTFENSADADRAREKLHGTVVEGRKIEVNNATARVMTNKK
For `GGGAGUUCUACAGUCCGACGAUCGUUUUUUCCAGGGAAAACAAUGUGCUUCCUCAUGUUCAUGCCAAAUUGCACAAAGUGUAGGUAUUCAUGUUAAUGGAUAUUUAAGCACAGUCCUAGAAGGUAUGUUUUAAUGGAAUUCUCGGGUGCCAA`, “RBNS enrichment (R)” read 0.348.
Under “RBNS enrichment (R)”, `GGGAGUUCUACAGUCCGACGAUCCAGCUUUAACUUGUAAGACAGCUAUGAGUCACUUUGAGAAUUCCAGAGGCCAUGUUGGGGGGACAGCCAUUGAGUUUAUUCCUUUACCUCAUGUGACCCCAGCAACUUUGUGGAAUUCUCGGGUGCCAA` is recorded as 0.667.
Under “RBNS enrichment (R)”, `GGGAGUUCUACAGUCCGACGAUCGGGUGGGAAAGGGUCAUUACAUGAAAAUAUGAAGAAAUAGCCAUAUUAGUUUUUUAACCUGCAAUUUGCCUCAGCAACAAAGAAAAAGUGAAUUUUUAAUGCUGAAGAUAUGGAAUUCUCGGGUGCCAA` is recorded as 0.754.
`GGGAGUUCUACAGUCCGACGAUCGCCAUUCAUUCUACAGUCUUCCCAAGGUGUCCUAGUCUCUCCCAGGCCCCUGUGAUUUUCUCACAUAGGUGUCUUCUCAGUUCUGUCAAAUUCCUGAUGUUCUGCAAUACUGGAAUUCUCGGGUGCCAA`: “RBNS enrichment (R)” 0.414.
Under “RBNS enrichment (R)”, `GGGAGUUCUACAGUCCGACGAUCGCCUGGAAAGUCCACUUGGACUUGACAAUGAGGAGCUCUCUGCUGUCACCUGCUGUGAUUCCUAGAGUCAGAAUCAGACUGCAGUGGCCACAGGCACAAGUGGGAAGUGAUGGAAUUCUCGGGUGCCAA` is recorded as 0.447.
`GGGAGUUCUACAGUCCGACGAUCAAGUCCUGAUCAGCUGUCAGAUUGUUCUGAGAGUCUCAUCGCUGUCCUCGAGUGUCCAGUCUCAGGUGAUCUUGACCUGAUCGGAGUCGCCAGGCAGUAUAUCCAGUUAGUGGAAUUCUCGGGUGCCAA` — result for “RBNS enrichment (R)”: 0.229.
`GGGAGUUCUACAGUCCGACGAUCUGACCCUGUUUCUCCUCAGAUGACAACCACCACUCCUGAGGUCUUUGUCCUCUCCUUGUCCCUUCAUCUUGGCUGGGCACAGUAUAUGAGUCCCCACGUGGUCGAGUCUGUGGAAUUCUCGGGUGCCAA` — result for “RBNS enrichment (R)”: 0.507.
Under “RBNS enrichment (R)”, `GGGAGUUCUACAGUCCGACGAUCUACAGAGGGCUUGGUUUGAAGUUGGGGUGAGAUGAAACCUUUGCUCUGAGCCAAAGCUCUGGGGCCUUGCAUUCCCUGCAUUGGGUUGAUGACUGUCAGCAUCACUGCCGUGGAAUUCUCGGGUGCCAA` is recorded as 0.283.

Other studies, line by line
Cell line: HEK-293T
Effect on: pseudovirus infection
Organism: VSV pseudotyped with SARS-CoV-2 spike
Tested at: 10 µM
Time: 16 h
Reference: vehicle-treated
The GFP-positive cells of CC(=O)O[C@]1(C(C)=O)CC[C@H]2[C@@H]3CCC4=CC(=O)CCC4=C3[C@@H](c3ccc(N(C)C)cc3)C[C@@]21C is reported as 92.3%.
CCCCCCCC(=O)N[C@H](CN1CCCC1)[C@H](O)c1ccc2c(c1)OCCO2 gave a GFP-positive cells of 52% (FDA-approved drug library screen).
